Results of several laboratories.
A part holds a random share of what one study measured. “And” joins repeats or separate records; there may be more than shown.
Sequence of UniProt O75747 (whole entry, looked up): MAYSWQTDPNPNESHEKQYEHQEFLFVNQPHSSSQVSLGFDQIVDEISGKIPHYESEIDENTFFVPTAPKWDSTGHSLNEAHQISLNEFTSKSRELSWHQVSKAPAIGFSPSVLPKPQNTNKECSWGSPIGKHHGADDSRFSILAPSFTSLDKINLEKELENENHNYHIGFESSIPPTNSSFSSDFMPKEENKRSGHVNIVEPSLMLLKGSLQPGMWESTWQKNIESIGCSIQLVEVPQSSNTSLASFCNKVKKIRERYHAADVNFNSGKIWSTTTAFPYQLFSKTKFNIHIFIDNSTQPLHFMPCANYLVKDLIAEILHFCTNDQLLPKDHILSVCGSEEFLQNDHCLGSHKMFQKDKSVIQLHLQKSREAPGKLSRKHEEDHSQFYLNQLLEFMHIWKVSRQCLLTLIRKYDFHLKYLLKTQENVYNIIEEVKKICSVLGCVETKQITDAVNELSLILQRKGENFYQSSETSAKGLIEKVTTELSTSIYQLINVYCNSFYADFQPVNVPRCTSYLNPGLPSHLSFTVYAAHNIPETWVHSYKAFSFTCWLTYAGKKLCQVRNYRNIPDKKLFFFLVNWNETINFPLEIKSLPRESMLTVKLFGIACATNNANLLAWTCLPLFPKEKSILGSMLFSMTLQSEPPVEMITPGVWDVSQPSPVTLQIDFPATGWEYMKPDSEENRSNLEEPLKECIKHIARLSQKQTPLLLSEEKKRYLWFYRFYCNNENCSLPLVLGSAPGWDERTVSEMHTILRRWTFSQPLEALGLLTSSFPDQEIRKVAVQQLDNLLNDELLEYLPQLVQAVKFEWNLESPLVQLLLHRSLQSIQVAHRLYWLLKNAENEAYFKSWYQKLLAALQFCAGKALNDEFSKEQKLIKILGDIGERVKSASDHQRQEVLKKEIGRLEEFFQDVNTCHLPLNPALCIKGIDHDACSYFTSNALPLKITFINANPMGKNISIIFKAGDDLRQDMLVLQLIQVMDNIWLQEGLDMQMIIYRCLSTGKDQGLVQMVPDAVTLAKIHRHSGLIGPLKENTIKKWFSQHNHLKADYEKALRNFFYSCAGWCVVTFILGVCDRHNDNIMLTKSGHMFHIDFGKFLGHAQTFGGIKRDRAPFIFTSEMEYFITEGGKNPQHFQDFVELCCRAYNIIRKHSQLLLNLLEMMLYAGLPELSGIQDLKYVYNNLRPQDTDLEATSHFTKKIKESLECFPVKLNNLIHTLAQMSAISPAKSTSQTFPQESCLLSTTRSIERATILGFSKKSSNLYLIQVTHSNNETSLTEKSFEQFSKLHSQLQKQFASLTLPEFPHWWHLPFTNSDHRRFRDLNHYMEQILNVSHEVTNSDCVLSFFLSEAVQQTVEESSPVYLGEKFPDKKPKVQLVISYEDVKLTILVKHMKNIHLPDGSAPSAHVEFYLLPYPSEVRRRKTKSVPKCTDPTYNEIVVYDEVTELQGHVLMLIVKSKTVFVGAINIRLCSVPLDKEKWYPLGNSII
Sequence of UniProt P43403 (whole entry, looked up): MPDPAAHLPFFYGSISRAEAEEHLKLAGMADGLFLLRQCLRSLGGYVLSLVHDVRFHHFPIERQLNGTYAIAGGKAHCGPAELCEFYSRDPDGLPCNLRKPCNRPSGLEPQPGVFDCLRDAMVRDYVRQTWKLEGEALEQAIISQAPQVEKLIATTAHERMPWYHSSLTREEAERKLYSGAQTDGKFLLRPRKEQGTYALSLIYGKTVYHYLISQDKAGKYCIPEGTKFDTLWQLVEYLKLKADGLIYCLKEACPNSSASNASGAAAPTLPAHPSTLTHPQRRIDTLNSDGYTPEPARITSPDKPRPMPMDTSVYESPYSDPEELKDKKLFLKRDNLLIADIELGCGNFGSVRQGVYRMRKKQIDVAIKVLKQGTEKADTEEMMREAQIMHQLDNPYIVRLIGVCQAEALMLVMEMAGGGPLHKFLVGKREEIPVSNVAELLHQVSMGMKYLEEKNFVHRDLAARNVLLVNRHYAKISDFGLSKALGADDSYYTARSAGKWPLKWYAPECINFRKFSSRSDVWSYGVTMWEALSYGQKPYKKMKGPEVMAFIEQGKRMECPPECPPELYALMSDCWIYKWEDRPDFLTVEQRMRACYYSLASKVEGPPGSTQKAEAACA
Sequence of UniProt O14920 (whole entry, looked up): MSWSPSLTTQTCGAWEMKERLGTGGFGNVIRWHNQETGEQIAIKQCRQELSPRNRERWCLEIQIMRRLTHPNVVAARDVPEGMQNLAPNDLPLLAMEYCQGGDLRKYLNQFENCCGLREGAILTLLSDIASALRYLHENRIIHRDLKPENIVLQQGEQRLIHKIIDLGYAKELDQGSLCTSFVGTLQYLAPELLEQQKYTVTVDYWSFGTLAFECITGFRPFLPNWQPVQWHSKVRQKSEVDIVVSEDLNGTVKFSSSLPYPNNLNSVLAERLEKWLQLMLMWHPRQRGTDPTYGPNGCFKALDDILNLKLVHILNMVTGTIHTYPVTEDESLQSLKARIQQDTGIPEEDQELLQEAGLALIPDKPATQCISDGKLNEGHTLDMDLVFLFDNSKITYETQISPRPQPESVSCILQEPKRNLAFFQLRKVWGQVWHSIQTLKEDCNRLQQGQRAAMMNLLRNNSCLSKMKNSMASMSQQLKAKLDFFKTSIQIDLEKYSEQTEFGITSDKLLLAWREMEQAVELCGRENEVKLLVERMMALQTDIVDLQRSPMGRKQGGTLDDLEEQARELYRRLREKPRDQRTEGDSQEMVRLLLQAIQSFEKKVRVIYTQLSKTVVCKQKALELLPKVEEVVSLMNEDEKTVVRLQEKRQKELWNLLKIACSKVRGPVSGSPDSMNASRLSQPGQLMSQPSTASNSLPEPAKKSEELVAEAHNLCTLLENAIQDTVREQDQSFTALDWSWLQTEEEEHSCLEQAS
Sequence of UniProt P51955 (whole entry, looked up): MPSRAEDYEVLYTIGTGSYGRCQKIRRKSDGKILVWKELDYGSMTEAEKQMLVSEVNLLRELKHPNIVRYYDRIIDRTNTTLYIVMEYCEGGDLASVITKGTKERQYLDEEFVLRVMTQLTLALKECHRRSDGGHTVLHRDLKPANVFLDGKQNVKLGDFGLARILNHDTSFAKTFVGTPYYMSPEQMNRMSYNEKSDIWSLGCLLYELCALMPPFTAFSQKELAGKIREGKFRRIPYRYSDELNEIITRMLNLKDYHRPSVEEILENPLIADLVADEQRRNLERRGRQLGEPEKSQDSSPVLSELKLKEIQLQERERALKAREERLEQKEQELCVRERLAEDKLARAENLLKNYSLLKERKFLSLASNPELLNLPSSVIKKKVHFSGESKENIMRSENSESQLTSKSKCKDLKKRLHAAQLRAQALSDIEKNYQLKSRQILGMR

Set 1
Target: Eukaryotic initiation factor 4A-I (EIF4A1, Homo sapiens, UniProt P60842)
Sequence of UniProt P60842 (whole entry, looked up): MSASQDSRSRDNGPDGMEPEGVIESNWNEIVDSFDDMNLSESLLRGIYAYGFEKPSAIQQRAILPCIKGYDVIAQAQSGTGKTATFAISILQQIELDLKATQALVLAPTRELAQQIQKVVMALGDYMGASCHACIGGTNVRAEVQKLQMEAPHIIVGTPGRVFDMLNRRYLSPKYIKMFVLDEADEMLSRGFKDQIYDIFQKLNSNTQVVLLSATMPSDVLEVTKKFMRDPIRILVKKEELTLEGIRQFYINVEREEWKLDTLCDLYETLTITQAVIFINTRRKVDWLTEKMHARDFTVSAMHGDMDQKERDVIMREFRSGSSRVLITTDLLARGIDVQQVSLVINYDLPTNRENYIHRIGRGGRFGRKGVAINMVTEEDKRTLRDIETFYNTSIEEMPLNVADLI
Effect on: RNA clamping
Technique: fluorescence polarization
Concentration: concentration not given
Setting: mean of two replicates
Added: FAM-labelled poly r(AG)8 RNA
`COC(=O)[C@H]1C(=O)[C@@]2(NCc3ccccc3)c3c(OC)cc(OC)cc3O[C@@]2(c2ccc(OC)cc2)[C@@H]1c1ccccc1`: “fluorescence polarization change” 1.9 mP.
Under “fluorescence polarization change”, `COc1ccc([C@]23[C@H](c4ccccc4)C[C@@H](O)[C@@]2(O)c2c(F)cccc2N3C)cc1` is recorded as 3.7 mP.
For `COC(=O)[C@@H]1[C@@H](c2ccccc2)[C@]2(c3ccc(OC)cc3)Oc3cc(OC)cc(OC)c3[C@@]23NC(C(F)(F)F)=N[C@@]13O`, “fluorescence polarization change” read 27.2 mP.
Under “fluorescence polarization change”, `COc1ccc([C@@]23Oc4cc(OC)cc(OC)c4[C@]2(O)[C@H](O)[C@H](C(=O)c2ccco2)[C@H]3c2cccc(OC)c2)cc1` is recorded as 26.1 mP.
Under “fluorescence polarization change”, `COC(=O)[C@H]1C(=O)[C@@]2(NCC3CCNCC3)c3c(OC)cc(OC)cc3O[C@@]2(c2ccc(OC)cc2)[C@@H]1c1ccccc1` is recorded as -2.2 mP.
`COC(=O)[C@@H]1[C@@H](c2ccccc2)[C@]2(c3ccc(OC)cc3)Oc3cc(OC)cc(OC)c3[C@@]23NC(Cc2ccccc2)=N[C@@]13O` — result for “fluorescence polarization change”: 66.7 mP and 39 mP.
For `COC(=O)[C@H]1C(=O)[C@@]2(NCCN3CCOCC3)c3c(OC)cc(OC)cc3O[C@@]2(c2ccc(OC)cc2)[C@@H]1c1ccccc1`, “fluorescence polarization change” read 15.9 mP.
`COc1ccc([C@@]23Oc4cc(O)cc(OC)c4[C@]2(O)[C@H](O)[C@H](C(=O)c2ccco2)[C@H]3c2ccccc2)cc1` — result for “fluorescence polarization change”: 11.2 mP.
For `COc1ccc([C@]23Oc4cc(OC)cc(OC)c4[C@](O)([C@H]2O)[C@@H](C(=O)N(C)OC)[C@@H]3c2ccccc2)cc1`, “fluorescence polarization change” read 8.3 mP.
`COc1ccc([C@@]23Oc4cc(OC)cc(OC)c4[C@]2(O)c2nc(C4CCCCC4)[nH]c(=O)c2[C@H]3c2ccccc2)cc1` — result for “fluorescence polarization change”: 42.2 mP.
`O=C1C[C@@H](c2ccccc2)[C@]2(c3ccc(Br)cc3)Oc3cc(F)cc(F)c3[C@]12O` — result for “fluorescence polarization change”: 9.5 mP.

Set 2
Target: Fibroblast growth factor receptor 2 (FGFR2, Homo sapiens, UniProt P21802)
Sequence of UniProt P21802 (whole entry, looked up): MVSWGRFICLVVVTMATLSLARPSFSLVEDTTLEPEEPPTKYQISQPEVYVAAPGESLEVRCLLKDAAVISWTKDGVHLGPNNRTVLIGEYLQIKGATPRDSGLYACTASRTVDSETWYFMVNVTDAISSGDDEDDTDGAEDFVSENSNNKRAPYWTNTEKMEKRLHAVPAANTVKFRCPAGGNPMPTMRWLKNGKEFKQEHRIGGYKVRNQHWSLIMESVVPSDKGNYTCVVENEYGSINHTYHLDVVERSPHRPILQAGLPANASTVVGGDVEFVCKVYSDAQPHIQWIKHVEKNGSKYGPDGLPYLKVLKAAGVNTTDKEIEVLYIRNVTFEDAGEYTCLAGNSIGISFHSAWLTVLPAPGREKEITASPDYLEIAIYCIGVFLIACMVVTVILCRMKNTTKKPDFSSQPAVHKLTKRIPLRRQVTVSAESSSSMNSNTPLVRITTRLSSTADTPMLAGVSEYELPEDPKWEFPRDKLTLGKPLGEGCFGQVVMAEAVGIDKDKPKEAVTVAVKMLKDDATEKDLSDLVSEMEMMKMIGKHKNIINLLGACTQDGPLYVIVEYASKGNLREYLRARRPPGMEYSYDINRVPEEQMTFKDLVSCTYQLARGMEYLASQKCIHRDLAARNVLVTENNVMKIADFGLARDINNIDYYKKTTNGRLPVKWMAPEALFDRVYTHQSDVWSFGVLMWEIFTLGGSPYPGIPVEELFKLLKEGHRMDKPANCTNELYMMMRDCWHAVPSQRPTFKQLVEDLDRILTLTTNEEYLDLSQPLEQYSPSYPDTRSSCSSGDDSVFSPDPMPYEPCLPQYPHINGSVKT
Effect on: enzyme activity
Mode: inhibitor
Concentration: 0.5 µM
Baseline: control
The remaining activity of `Cc1cncc2cccc(S(=O)(=O)N3CCCN(C(=O)CN)C[C@@H]3C)c12` is reported as 98.4%.
`CC(=O)c1ccc(N2CCOCC2)cc1O` has a remaining activity of 108%.
For `N#CC(=C(N)Sc1ccc(N)cc1)c1ccccc1C(F)(F)F`, the remaining activity was 101%.
The remaining activity of `NC(=O)c1ccc(N(C(N)=O)c2c(F)cccc2F)nc1-c1ccc(F)cc1F` is reported as 99.5%.
`CC[n+]1c(/C=C/N(C)c2ccccc2)n(-c2ccccc2)c2ccc(-c3nc4ccccc4s3)cc21` gave a remaining activity of 100%.
`CCc1[nH]c(-c2ccc(OC)cc2)nc1-c1ccncc1` has a remaining activity of 104%.
`CCCC(=O)Oc1ccc2[nH]c(C(=O)c3cc4ccccc4[nH]3)cc2c1` gave a remaining activity of 100%.
The remaining activity of `Fc1ccc(-c2nc3n(c2-c2ccncc2)CCS3)cc1` is reported as 106%.
For `CC(C)(C)n1nc(Cc2cccc3ccccc23)c2c(N)ncnc21`, the remaining activity was 88.3%.
`CC#CC(=O)Nc1cc2c(Nc3ccc(F)c(Cl)c3)ncnc2cn1` has a remaining activity of 101%.
The remaining activity of `Nc1ncnc2c1cnn2-c1ccccc1` is reported as 100%.
`Cc1ccc(NC2=CC(=O)c3sc(C)nc3C2=O)cc1` has a remaining activity of 91%.
For `Cc1cc(Nc2nc(-c3ccccc3)nc3ccccc23)n[nH]1`, the remaining activity was 83.7%.
For `O=S(=O)(NCCNC/C=C/c1ccc(Br)cc1)c1cccc2cnccc12`, the remaining activity was 95.1%.
`Nc1nccc(-c2c(-c3ccc(F)cc3)ncn2C2CCNCC2)n1` gave a remaining activity of 104%.
`COc1ccc(S(=O)(=O)N(CCO)c2ccccc2CN(C)CC=Cc2ccc(Cl)cc2)cc1` has a remaining activity of 98.6%.
`O=C1Cc2c([nH]c3ccc([N+](=O)[O-])cc23)-c2ccccc2N1` gave a remaining activity of 96.7%.
The remaining activity of `CSc1nc(-c2ccnc(N[C@@H](C)c3ccccc3)c2)c(-c2ccc(F)cc2)[nH]1` (racemic) is reported as 95.2%.
The remaining activity of `Oc1ccc(Nc2nc(-c3ccc(Cl)cc3)cs2)cc1` is reported as 104%.
With `COc1cc(Nc2c(C#N)cnc3cc(OCCCN4CCN(C)CC4)c(OC)cc23)c(Cl)cc1Cl` the remaining activity was 58.1%.
With `O=C1NC(=O)C(c2c[nH]c3ccccc23)=C1c1c[nH]c2ccccc12` the remaining activity was 89.4%.

Set 3
Target: Beta-1 adrenergic receptor (ADRB1, Homo sapiens, UniProt P08588)
Sequence of UniProt P08588 (whole entry, looked up): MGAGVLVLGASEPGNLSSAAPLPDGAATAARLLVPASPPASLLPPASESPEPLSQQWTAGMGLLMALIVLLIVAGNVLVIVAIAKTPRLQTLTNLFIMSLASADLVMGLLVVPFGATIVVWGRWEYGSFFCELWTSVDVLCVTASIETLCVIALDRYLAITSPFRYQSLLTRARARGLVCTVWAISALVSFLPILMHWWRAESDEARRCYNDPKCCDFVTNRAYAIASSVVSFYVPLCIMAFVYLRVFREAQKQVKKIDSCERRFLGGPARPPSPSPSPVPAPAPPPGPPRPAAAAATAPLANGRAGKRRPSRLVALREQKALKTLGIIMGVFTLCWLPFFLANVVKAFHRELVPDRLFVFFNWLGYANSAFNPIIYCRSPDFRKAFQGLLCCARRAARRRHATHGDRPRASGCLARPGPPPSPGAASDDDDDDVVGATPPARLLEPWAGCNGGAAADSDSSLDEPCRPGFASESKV
Mode: agonist
The EC50 of `COc1ccccc1N1CCN([C@H]2[C@@H]3OC[C@@H](O3)[C@@H](NCc3ccc(OC(F)(F)F)cc3)[C@@H]2O)CC1` is reported as at least 100 µM.
The EC50 of `COc1cc(-c2nccc3c(=O)cc(N(C)c4ccccc4)oc23)ccn1` is reported as at least 100 µM.
With `CC(C)NCC(O)COc1cccc2c1N(C(=O)c1cccnc1)CCC2` (centres unmarked) the EC50 was at least 100 µM.
`O=c1ncn(CCC(F)(F)F)c2ccc(-c3ccccc3)nc12` gave an EC50 of at least 100 µM.
`Cc1cc(=O)oc2cc(OCC(=O)NC3CCCc4c3[nH]c3ccccc43)ccc12` (centres unmarked) gave an EC50 of at least 100 µM.
The EC50 of `COc1ccc(-c2ccc(Cn3ccnc3)cn2)c2ccc(C)nc12` is reported as at least 100 µM.
With `CC1(C)CC(=O)c2cc(C(=O)Nc3cccc4ccccc34)c(O)nc2C1` the EC50 was at least 100 µM.
With `Cc1noc2c(-c3cn[nH]c3)cc(-c3ccccc3)nc12` the EC50 was at least 100 µM.
With `Fc1ccc(NC(=S)N[C@H]2CO[C@H]3[C@@H]2OC[C@@H]3n2nnnc2Oc2ccc(-n3cncn3)cc2)cc1` the EC50 was at least 100 µM.
With `CN1CCN(CC(O)COc2ccc(C34CC5CC(CC(C5)C3)C4)cc2)CC1` (centres unmarked) the EC50 was at least 100 µM.
`Cc1cccc2ncc(-c3cccc(NC4CNC4)n3)n12` has an EC50 of at least 100 µM.
`NCCn1cc(C(=O)NCC(O)c2ccccc2C(F)(F)F)nn1` (centres unmarked) gave an EC50 of at least 100 µM.
With `O=c1[nH]c2ccccc2n1C1CCN(CCOc2ccc(F)cc2)CC1` the EC50 was at least 100 µM.
For `COCCNCc1ccc(-c2cc3nccc(Oc4ccc(NC(=S)NC(=O)Cc5ccc(F)cc5)cc4F)c3s2)nc1`, the EC50 was at least 100 µM.
`CN(c1ccccc1)c1cc(=O)c2ccnc(NCCc3ccccn3)c2o1` gave an EC50 of at least 100 µM.
For `COc1cc2nc(-c3cc4c(c(OC)c3)OCCNC4)cc(C)c2cc1OC`, the EC50 was at least 100 µM.

Set 4
Compound: O=C(Nc1cnc(Oc2ccc(F)cc2)nc1)N1CCc2ncccc2[C@@H]1c1ccc(F)cc1
Concentration: 1 µM
For CDKL3 (Homo sapiens, UniProt Q8IVW4); cell-free assay, competition with immobilised ligand: remaining binding read 77%.
CDC42BPG (Homo sapiens, UniProt Q6DT37); competition binding — remaining binding: 98%.
The remaining binding was 89% (MYLK3 (Homo sapiens, UniProt Q32MK0); cell-free assay, competition with immobilised ligand).
It gave 100% for remaining binding (TRPM6 (Homo sapiens, UniProt Q9BX84); cell-free assay, competition with immobilised ligand).
For PIK3C2G (Homo sapiens, UniProt O75747); cell-free assay, competition with immobilised ligand: remaining binding read 97%.
The remaining binding was 88% (EPHA4 (Homo sapiens, UniProt P54764); cell-free assay, competition with immobilised ligand).
The remaining binding was 93% (ZAP70 (Homo sapiens, UniProt P43403); cell-free assay, competition with immobilised ligand).
PIK3CA (Homo sapiens, UniProt P42336, M1043I); cell-free assay, competition with immobilised ligand — remaining binding: 100%.
It gave 87% for remaining binding (CSNK1G3 (Homo sapiens, UniProt Q9Y6M4); cell-free assay, competition with immobilised ligand).
ACVRL1 (Homo sapiens, UniProt P37023); cell-free assay, competition with immobilised ligand — remaining binding: 99%.
It gave 100% for remaining binding (IKBKB (Homo sapiens, UniProt O14920); cell-free assay, competition with immobilised ligand).
MAP3K20 (Homo sapiens, UniProt Q9NYL2); cell-free assay, competition with immobilised ligand — remaining binding: 100%.
The remaining binding was 92% (NEK2 (Homo sapiens, UniProt P51955); cell-free assay, competition with immobilised ligand).
WNK1 (Homo sapiens, UniProt Q9H4A3); cell-free assay, competition with immobilised ligand — remaining binding: 100%.
It gave 100% for remaining binding (CAMK1D (Homo sapiens, UniProt Q8IU85); cell-free assay, competition with immobilised ligand).
For PRKCE (Homo sapiens, UniProt Q02156); cell-free assay, competition with immobilised ligand: remaining binding read 100%.
It gave 100% for remaining binding (PIP5K1C (Homo sapiens, UniProt O60331); cell-free assay, competition with immobilised ligand).
The remaining binding was 100% (PLK4 (Homo sapiens, UniProt O00444); cell-free assay, competition with immobilised ligand).
The remaining binding was 95% (COQ8A (Homo sapiens, UniProt Q8NI60); cell-free assay, competition with immobilised ligand).
FGR (Homo sapiens, UniProt P09769); cell-free assay, competition with immobilised ligand — remaining binding: 100%.

Excerpt of the above (set 3):
`O=c1ncn(CCC(F)(F)F)c2ccc(-c3ccccc3)nc12` gave an EC50 of at least 100 µM.
For `COCCNCc1ccc(-c2cc3nccc(Oc4ccc(NC(=S)NC(=O)Cc5ccc(F)cc5)cc4F)c3s2)nc1`, the EC50 was at least 100 µM.
The EC50 of `COc1ccccc1N1CCN([C@H]2[C@@H]3OC[C@@H](O3)[C@@H](NCc3ccc(OC(F)(F)F)cc3)[C@@H]2O)CC1` is reported as at least 100 µM.
`Cc1cc(=O)oc2cc(OCC(=O)NC3CCCc4c3[nH]c3ccccc43)ccc12` (centres unmarked) gave an EC50 of at least 100 µM.
With `Fc1ccc(NC(=S)N[C@H]2CO[C@H]3[C@@H]2OC[C@@H]3n2nnnc2Oc2ccc(-n3cncn3)cc2)cc1` the EC50 was at least 100 µM.
For `COc1cc2nc(-c3cc4c(c(OC)c3)OCCNC4)cc(C)c2cc1OC`, the EC50 was at least 100 µM.
`NCCn1cc(C(=O)NCC(O)c2ccccc2C(F)(F)F)nn1` (centres unmarked) gave an EC50 of at least 100 µM.
